Published values pooled from the literature.
Each numbered part is a random draw from the data of one study; scales do not carry over between parts.

Set 1
Target: Ras GTPase-activating protein-binding protein 1, RRM domain (G3BP1, Homo sapiens, UniProt Q13283)
UniProt Q13283, sequence (whole entry, looked up): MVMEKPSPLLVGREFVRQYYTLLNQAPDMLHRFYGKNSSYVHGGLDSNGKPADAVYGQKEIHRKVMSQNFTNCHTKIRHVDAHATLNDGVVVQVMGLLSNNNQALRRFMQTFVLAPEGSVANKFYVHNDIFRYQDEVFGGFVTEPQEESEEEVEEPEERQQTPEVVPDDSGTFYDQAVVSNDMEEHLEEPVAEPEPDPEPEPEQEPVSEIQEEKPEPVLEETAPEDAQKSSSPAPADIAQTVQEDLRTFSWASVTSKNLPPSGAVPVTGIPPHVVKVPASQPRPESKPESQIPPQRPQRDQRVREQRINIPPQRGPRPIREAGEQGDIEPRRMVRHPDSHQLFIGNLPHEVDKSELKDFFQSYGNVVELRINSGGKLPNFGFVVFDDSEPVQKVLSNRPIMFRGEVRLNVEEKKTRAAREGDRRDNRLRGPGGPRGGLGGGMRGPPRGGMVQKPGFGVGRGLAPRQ
Method: RNA Bind-n-Seq
Molecule type: RNA
Matrix: in vitro
Concentration: 1 µM
Notes: whole 134-nt RNA, ends assumed
Together with: 150 mM KCl
Relative to: input library
Reading: higher = stronger binding
The log2 enrichment of `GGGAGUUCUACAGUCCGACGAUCAGUCCUGUGCUACACAUCGUAUGUACCGAAUCGGGAAAAAGGGAAAAAGGAAAAAGGGAAAGUAUUAUGUUACGCCGUUCGGAUCUGCACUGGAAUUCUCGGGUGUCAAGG` is reported as -0.2.
`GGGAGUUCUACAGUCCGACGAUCCACAGACAACACGCACCCACACAGACACAGAGAAAAGGGGUUGGGAUGGGGACAGGGUGCACAGCAGGGCGGGGUAGGACCCCAGCCCCUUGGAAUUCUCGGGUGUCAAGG` has a log2 enrichment of -0.129.
The log2 enrichment of `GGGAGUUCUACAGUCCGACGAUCUGGGAGGUUGAUUUUGUUUAUUUUUUUAGCUCAUUUCCAGGGGUGGGAAUUUUUUUUUAAUAUGUGUCAUGAAUAAAGUUGUUUUUGAAAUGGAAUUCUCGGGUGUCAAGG` is reported as 1.76.
With `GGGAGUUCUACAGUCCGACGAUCUCCUGUGCUACACAUCGUAUGUACCGAAUCGGGUUUUUUGGGUUUUUUGGUUUUUUGGGGAAAGUAUUAUGUUACGCCGUUCGGAUCUGCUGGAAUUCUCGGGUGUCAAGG` the log2 enrichment was -0.0879.
For `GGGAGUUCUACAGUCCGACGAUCCACAGACAACACGCACCCACACAGACACAGAGGGAAGGGGUUGGGAUGGGGACAGGGUGCUCAGCAGGGCGGGGUAGGACCCCAGCCCCUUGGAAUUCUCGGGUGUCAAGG`, the log2 enrichment was -0.22.
The log2 enrichment of `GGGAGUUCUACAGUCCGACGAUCAAGUCCUGUGCUACACAUCGUAUGUACCGAAUCAAACCCCCAAACCCAAACCCAAAAAAGUAUUAUGUUACGCCGUUCGGAUCUGCACUUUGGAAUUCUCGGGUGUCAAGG` is reported as -0.233.
With `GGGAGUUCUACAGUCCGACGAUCUCUGCUAAAGAGAAAGGAAAAUUUGAAGAUAUGGCAAAAGCGGACAAGGCCCGUUAUGAAAGAGAAAUGAAAACCUAUAUCCCUCCCAAAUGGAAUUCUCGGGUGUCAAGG` the log2 enrichment was 0.0268.
`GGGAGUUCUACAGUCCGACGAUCUCCUGUGCUACACAUCGUAUGUACCGAAUCGGGGAAAAAGGGGAAAAAAAGGGGUGGGGAAAGUAUUAUGUUACGCCGUUCGGAUCUGCAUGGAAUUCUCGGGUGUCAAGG` has a log2 enrichment of 0.688.
The log2 enrichment of `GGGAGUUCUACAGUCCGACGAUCCUCAAGUCCUGUGCUACACAUCGUAUGUACCGAAUCGGGUGGGUUUGGGAGGGAAAGUAUUAUGUUACGCCGUUCGGAUCUGCACUUCCAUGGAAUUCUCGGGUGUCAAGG` is reported as 0.551.
With `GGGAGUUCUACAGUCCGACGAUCAGUCCUGUGCUACACAUCGUAUGUACCGAAUCGGAAAAAAAGGAAAAAGGUUUUUGGAAAGUAUUAUGUUACGCCGUUCGGAUCUGCACUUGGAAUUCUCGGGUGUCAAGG` the log2 enrichment was -0.0189.

Set 2
Target: Histone acetyltransferase KAT6A, winged helix 2, GST fusion (KAT6A, Homo sapiens, UniProt Q92794, residues 85-181)
Method: protein binding microarray
Molecule type: double-stranded DNA, one strand shown
Matrix: in vitro
Concentration: not given
Notes: 8-mer, flanks averaged, mean of 2 arrays, mostly near background
Relative to: not given
Reading: higher = stronger binding
Residues (chain): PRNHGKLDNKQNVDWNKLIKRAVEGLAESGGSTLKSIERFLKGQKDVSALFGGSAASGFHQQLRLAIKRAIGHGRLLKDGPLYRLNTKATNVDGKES
The E-score of `TCGGCTCA` is reported as -0.0179.
`ACGGCGAG` gave an E-score of 0.176.
`GACGCCTA` gave an E-score of 0.0143.
`CCAGTTAG` gave an E-score of -0.078.
With `AAAATGTG` the E-score was -0.104.
`ATCCAGCA` has an E-score of 0.0117.
For `AGCCTGTG`, the E-score was -0.13.
For `AACATCCT`, the E-score was -0.1.
`GACTTTAA` gave an E-score of -0.0612.
`ACCGAAGT` gave an E-score of -0.15.
With `GCCGAAAA` the E-score was 0.225.
With `GAACATGA` the E-score was -0.0871.
`AGGAGCCA` has an E-score of 0.0583.
`ACAAGTCG` has an E-score of -0.0472.
`GCAAGGCC` gave an E-score of 0.0208.
The E-score of `ACTGCTAC` is reported as -0.0494.
`ACCCTCAT` gave an E-score of -0.199.
The E-score of `ACTTGCGC` is reported as -0.0671.
For `GCAACGGC`, the E-score was 0.23.
For `CTCGCTCC`, the E-score was 0.208.
The E-score of `TCTTGACA` is reported as -0.0402.
The E-score of `ACCTTTTG` is reported as -0.0274.
`AGGTTCAT` has an E-score of -0.0571.
`ACCTGGGG` gave an E-score of -0.0725.
For `GTGAACGA`, the E-score was 0.079.

Set 3
Target: Centromere-binding protein 1, full length, His-tagged (CBF1, Saccharomyces cerevisiae, UniProt P17106, residues 1-351)
UniProt P17106, sequence (whole entry, looked up): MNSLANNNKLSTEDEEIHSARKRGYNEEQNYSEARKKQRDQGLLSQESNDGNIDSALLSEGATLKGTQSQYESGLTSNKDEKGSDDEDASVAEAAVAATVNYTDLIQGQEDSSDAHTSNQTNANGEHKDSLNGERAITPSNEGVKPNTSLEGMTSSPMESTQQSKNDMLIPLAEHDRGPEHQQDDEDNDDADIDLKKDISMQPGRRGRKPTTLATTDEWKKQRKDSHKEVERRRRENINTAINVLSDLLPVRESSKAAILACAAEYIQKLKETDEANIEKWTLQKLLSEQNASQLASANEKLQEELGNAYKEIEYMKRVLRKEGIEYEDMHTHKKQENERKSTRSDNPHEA
Method: competition protein-binding microarray
Molecule type: double-stranded DNA, one strand shown
Matrix: in vitro
Concentration: 2 µM
Notes: whole 60-bp probe, lowest competitor level
Together with: Pho4 competitor, 0.05 µM
Reading: higher = stronger binding
`AAGTTTTTGTATGAGCATGTGACAGTAAATGCGAACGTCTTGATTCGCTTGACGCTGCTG` has a fluorescence intensity of 2010 a.u.
With `CATCAGCCTTCCATGCCCGTGCAATTACGGCTCCTCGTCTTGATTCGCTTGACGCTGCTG` the fluorescence intensity was 77 a.u.
For `CAAGTTCCTGGCCATCACGTTGCCTTCTCCTTACGAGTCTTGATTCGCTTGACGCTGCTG`, the fluorescence intensity was 226 a.u.
`TGCGCAACAACTTGTCACTACACTTTATGTCTAGAAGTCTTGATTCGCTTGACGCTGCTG` has a fluorescence intensity of 77.9 a.u.
`AAAGCGGTAATTTGGCGCGTGGGTGCAGATATCTATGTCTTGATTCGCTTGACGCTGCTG` gave a fluorescence intensity of 88.8 a.u.
With `TGAAGCTATTACTGGCACGCATCCATATCAGCTTAGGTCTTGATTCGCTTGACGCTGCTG` the fluorescence intensity was 73.2 a.u.
`AAAGGTTATATCCATCACGTGACGGATCTGTAAAAGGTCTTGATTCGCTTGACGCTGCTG` has a fluorescence intensity of 13600 a.u.
`TTACCCAGCGATCCGCCCGTGAGGTGATGCGCAAAAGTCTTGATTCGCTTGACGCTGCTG` gave a fluorescence intensity of 64.5 a.u.
`GTGCGGCCATTGCTGAAAATCGCAAAACCCACAGAGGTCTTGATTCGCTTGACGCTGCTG` gave a fluorescence intensity of 84.4 a.u.
For `AAATTACTAAGTTGTGCAGTGGGTGACGCCGTATGAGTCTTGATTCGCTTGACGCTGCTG`, the fluorescence intensity was 72 a.u.
With `GTTACCCTCATAAAGCACGTGGCCGCTTATCGAGAAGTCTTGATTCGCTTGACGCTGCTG` the fluorescence intensity was 2050 a.u.
`CTTCTGTAAATTTGTTCAGTGGGTGGACGCGCCCCGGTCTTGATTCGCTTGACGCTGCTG` has a fluorescence intensity of 86.9 a.u.
With `GAGGCACTGATCCATCACGTGGAGGAGAACAATTTAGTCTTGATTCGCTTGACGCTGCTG` the fluorescence intensity was 1500 a.u.

Set 4
Target: RING finger protein unkempt homolog, zinc fingers 1-6, GST-SBP tag (UNK, Homo sapiens, UniProt Q9C0B0, residues 30-357)
UniProt Q9C0B0, sequence (30-357, looked up): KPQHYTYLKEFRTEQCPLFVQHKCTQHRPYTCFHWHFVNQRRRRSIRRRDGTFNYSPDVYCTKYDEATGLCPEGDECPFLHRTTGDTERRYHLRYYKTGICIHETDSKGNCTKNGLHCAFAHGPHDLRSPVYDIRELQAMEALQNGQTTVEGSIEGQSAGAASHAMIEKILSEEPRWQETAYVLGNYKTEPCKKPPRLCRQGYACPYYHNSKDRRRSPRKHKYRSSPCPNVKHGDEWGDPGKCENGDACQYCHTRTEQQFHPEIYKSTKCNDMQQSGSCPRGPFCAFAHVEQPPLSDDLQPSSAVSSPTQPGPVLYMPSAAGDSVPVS
Method: RNA Bind-n-Seq
Molecule type: RNA
Matrix: in vitro
Concentration: not given
Notes: RNA with constant flanks, human and mouse sites, ends assumed
Relative to: input RNA pool
Reading: higher = stronger binding
With `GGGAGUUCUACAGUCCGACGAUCCGCAAUGAACUCCUUUGUUUAAGUCUUUAAGCUCUGUGCCAAUGUCUAAUCUCUCUGGAAUGGUUUUCCUGAACACCUGUCAUCCCUCUCAUACUACGGACAUAUGGGUAGAAAGAAUGUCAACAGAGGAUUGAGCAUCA` the bound/input enrichment was 0.261 ratio.
For `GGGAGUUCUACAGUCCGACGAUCCGUUUGGGAUUUUAUUUUGUCUGUGUUUGGAAUUUUACUUCUCUCUUGGACAAGAACUCAAGAACAAAAUCCUCGGAAGAGGAAGGCAUCCCUGGAGUGGUUUCUUUACUGUACUUCCAUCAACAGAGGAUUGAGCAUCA`, the bound/input enrichment was 0.184 ratio.
`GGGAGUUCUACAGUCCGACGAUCCCUAUAGGACAGAGAGGCAGUGAGCAAGGCAAACGUGUGGAGAACAUUAAUGGAACCUCCUACCCUAGUCUACAGCAGAAAACCAAUGCUGUUAAGAAAUUACAUAAAUGUGAUGAAUGUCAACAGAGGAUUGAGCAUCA` has a bound/input enrichment of 23.7 ratio.
With `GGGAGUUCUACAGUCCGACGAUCGGCACACGGCUUUCUUUCUCUGUGUGUUCGCCUCUUUCUUCUCUUUUAUUUGCCUUAUUCUAUAGGAUUUUUGUCCUCUAAGAUUCUACCUGGGAUUUUCCUUUGGAAAAGUUGCUGUGGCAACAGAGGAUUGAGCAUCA` the bound/input enrichment was 0.512 ratio.
The bound/input enrichment of `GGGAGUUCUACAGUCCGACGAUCUUAAAUACACGAAGUUACAUUUUUGUUCAUGUUUCAUUGUCCAGAAAGCAGCAGGAAACUAUUCAGUUGUGAUCAAGCAGGAAAAAAGAAACACCAACAGUUGCCAGUGUUUUUGCUUUUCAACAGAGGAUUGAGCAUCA` is reported as 0.17 ratio.
For `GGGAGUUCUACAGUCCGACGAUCAAUUGUGCAAUCAGCAGCUCUGAUGACCGCAGUCUCUUUCGACGACUGAAACUGAAUUAUGCAAUUUUUGAUGAAGGCCAUAUGCUGAAGAAUAUGGGCUCUAUCCGCUAUCAACAUCUACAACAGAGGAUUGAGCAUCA`, the bound/input enrichment was 0.148 ratio.
For `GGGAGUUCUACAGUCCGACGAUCCUAGAAGUCCUGCCAGGUAGUUUGAUAAGAAUGCCUACCCAGUGCCCCCAGGCUUACAUACUUGAAUUGCUGAGUCAUCAGGGAUUACGGGAGAGGCUUAGGAGGUGUGGCUUUAUUGGACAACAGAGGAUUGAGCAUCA`, the bound/input enrichment was 0.76 ratio.
The bound/input enrichment of `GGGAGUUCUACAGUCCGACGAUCGGUUUUGGCGCUCAGAUACCUCCUCAGUGGCAGGUAUCACAUGAAUUUCCAAUGAACUUCAACCCAUCCAAUCCCUACUGCAAUGGAAUCCAAGGCAUUGUAGAGGCGUAUCGGUCUUGUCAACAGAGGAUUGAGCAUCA` is reported as 0.14 ratio.
With `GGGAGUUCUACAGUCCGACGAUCCUGAGCAAGAUGUACCCGCAGACGCGCCACCCGGCACCGCAUCAGCCUGCUCAACCCUUCAAAUUUACAAUUUCAGAAUCCUGUGAUCGGAUUAAGGAAGAGUUUCAGUUUUUACAGGCUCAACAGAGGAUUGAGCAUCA` the bound/input enrichment was 0.425 ratio.
`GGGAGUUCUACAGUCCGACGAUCGAUGGGAAAUGUGGACUUUACAAGUAUAUGUUAUAUAUACUUGCAAUGUGACAUGGUUCUGUAGAUCAUUUUAUAAUAAUAAAUAUUUUAAUUUAUCAUAACAUAUAAAAGAAACCUUUGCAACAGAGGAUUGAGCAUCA` has a bound/input enrichment of 7.68 ratio.
`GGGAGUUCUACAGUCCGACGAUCGUUACAGGCCCUGGUGGAGUUCCAGUUCAAGGCAGUAAAUACGCAGCAGACCGUAACCAUUAUAGACGCUAUCCACGUCGUAGGGGUCCUCCACGCAAUUACCAGCAAAAUUACCAGAAUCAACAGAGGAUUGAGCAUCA` gave a bound/input enrichment of 0.226 ratio.

Repeated from above (set 1):
The log2 enrichment of `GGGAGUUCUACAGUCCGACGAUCAGUCCUGUGCUACACAUCGUAUGUACCGAAUCGGGAAAAAGGGAAAAAGGAAAAAGGGAAAGUAUUAUGUUACGCCGUUCGGAUCUGCACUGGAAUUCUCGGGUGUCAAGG` is reported as -0.2.
The log2 enrichment of `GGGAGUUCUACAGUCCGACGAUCAAGUCCUGUGCUACACAUCGUAUGUACCGAAUCAAACCCCCAAACCCAAACCCAAAAAAGUAUUAUGUUACGCCGUUCGGAUCUGCACUUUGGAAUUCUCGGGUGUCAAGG` is reported as -0.233.
With `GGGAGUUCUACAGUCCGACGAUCUCCUGUGCUACACAUCGUAUGUACCGAAUCGGGUUUUUUGGGUUUUUUGGUUUUUUGGGGAAAGUAUUAUGUUACGCCGUUCGGAUCUGCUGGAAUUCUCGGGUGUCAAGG` the log2 enrichment was -0.0879.
`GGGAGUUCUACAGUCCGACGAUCCACAGACAACACGCACCCACACAGACACAGAGAAAAGGGGUUGGGAUGGGGACAGGGUGCACAGCAGGGCGGGGUAGGACCCCAGCCCCUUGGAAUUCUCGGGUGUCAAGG` has a log2 enrichment of -0.129.
